Experimental data pooled from the literature.
Lines come from different studies, so protocols differ. ± marks the error that the study gave.
Organism: Plasmodium falciparum

With `C[OH+][Cu-2]12[O]C(c3cn(-c4ccccc4)nc3-c3ccc(Br)cc3)=N[N+]1=C(C)c1c(cc(C)oc1=O)[O]2` (centres unmarked) the parasitaemia was 1.9% (3D7; 100 µg/mL, 72 h).
The EC50 of `Cc1ccc(NCC(=O)Nc2ccccc2)cc1S(=O)(=O)N1CCOCC1` is reported as 1450 nM (parasite growth; 3D7; blood stage).
The selectivity index of `CC[C@H](C)[C@@H]1NC(=O)[C@H](CCCCN)NC(=O)[C@H](CCCCN)NC(=O)[C@H](Cc2ccc(O)cc2)NC(=O)[C@H](CC(C)C)NC(=O)[C@@H]2CCCN2C(=O)[C@H](C)NC(=O)CNC(=O)CNC(=O)[C@H](CO)NC(=O)CNC(=O)CNC(=O)[C@H](CC(N)=O)NC(=O)[C@H](CCC(=O)O)NC(=O)[C@H](CC(C)C)NC(=O)[C@H](CC(C)C)NC(=O)[C@H](CCCCN)NC(=O)[C@H](CCCCN)NC(=O)[C@H]([C@@H](C)CC)NC(=O)[C@H]([C@@H](C)CC)NC(=O)[C@H](CCCCN)NC(=O)[C@H](CCCCN)NC(=O)[C@H](Cc2ccc(O)cc2)NC(=O)[C@H](CC(C)C)NC(=O)[C@@H]2CCCN2C(=O)[C@H](C)NC(=O)CNC(=O)CNC(=O)[C@H](CO)NC(=O)CNC(=O)CNC(=O)[C@H](CC(N)=O)NC(=O)[C@H](CCC(=O)O)NC(=O)[C@H](CC(C)C)NC(=O)[C@H](CC(C)C)NC(=O)[C@H](CCCCN)NC(=O)[C@H](CCCCN)NC(=O)[C@H]([C@@H](C)CC)NC1=O` is reported as 12.7 ± 2.7 (3D7; 5 mg/mL Albumax II; relative to: RBC HC10 over P. falciparum IC50).
`COCn1ccc(NCCNCCCOc2ccc3c(NCCCc4ccccc4)ncnc3c2)nc1=O`: inhibition “inactive” (DNA methylation; Plasmodium falciparum nuclear extract; 32 µM).
`CC(C)C1=CC(=CNC2CCCCCC2)N=C1c1ccc[nH]1` gave an IC50 of greater than 2500 nM (parasite growth, SYBR Green I fluorescence; D6, chloroquine-sensitive).
For `Nc1ncnc2c1c(-c1ccc(Oc3ccccc3)cc1)cn2C1CCCC1`, merozoite release read “no effect” (schizont-infected red blood cells, FVO; 30 µM).
`Cc1ccc(CNC(=O)[C@@H]2Cc3cccc(c3)Oc3cccc(c3)C[C@H](N)C(=O)N[C@@H](CCc3ccccc3)C(=O)N2)cc1` gave an EC50 of 1020 nM (1 h pulse, synchronized schizont stage).
The inhibition of `COc1cc(O)c(-c2cc(-c3cc(-c4c(O)cc(OC)c5c4C[C@@H](C)N[C@@H]5C)c4cc(C)cc(OC)c4c3O)c(O)c3c(OC)cc(C)cc23)c2c1[C@@H](C)N[C@H](C)C2` is reported as greater than 70% (gametocyte viability, luciferase reporter; NF54-Pfs16-GFP-Luc, early stage II/III; 5 µM, 48 h).
`C[OH+][Cu-2]12[O]C(c3cn(-c4ccccc4)nc3-c3ccc(C)cc3)=N[N+]1=C(C)c1c(cc(C)oc1=O)[O]2` (centres unmarked) gave a parasitaemia of 0% (3D7; 100 µg/mL, 72 h).
`COc1cc2nc(N3CCCN(C)CC3)nc(SC3CCN(Cc4ccccc4)CC3)c2cc1OC` has a selectivity ratio of 6.7 (HepG2, 3D7; relative to: HepG2 IC50 over Pf3D7 IC50).
For `Cc1ccc(NCC(=O)Nc2nccs2)cc1S(=O)(=O)N1CCOCC1`, the EC50 was greater than 50000 nM (parasite growth; 3D7; blood stage).

Some of these lines once more:
The inhibition of `COc1cc(O)c(-c2cc(-c3cc(-c4c(O)cc(OC)c5c4C[C@@H](C)N[C@@H]5C)c4cc(C)cc(OC)c4c3O)c(O)c3c(OC)cc(C)cc23)c2c1[C@@H](C)N[C@H](C)C2` is reported as greater than 70% (gametocyte viability, luciferase reporter; NF54-Pfs16-GFP-Luc, early stage II/III; 5 µM, 48 h).
